Published values of several laboratories.
Protocols differ between the studies behind these lines. “And” joins repeats or separate records; there may be more than shown. Numbers after ± are the reported error.
Chain of UniProt Q16774 (whole entry, looked up): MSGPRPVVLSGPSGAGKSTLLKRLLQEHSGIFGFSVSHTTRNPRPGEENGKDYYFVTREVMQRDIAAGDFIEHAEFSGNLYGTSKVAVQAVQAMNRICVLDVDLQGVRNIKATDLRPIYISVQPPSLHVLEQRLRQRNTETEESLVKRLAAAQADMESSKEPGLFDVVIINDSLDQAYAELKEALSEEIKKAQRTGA
Chain of UniProt P30191 (whole entry, looked up): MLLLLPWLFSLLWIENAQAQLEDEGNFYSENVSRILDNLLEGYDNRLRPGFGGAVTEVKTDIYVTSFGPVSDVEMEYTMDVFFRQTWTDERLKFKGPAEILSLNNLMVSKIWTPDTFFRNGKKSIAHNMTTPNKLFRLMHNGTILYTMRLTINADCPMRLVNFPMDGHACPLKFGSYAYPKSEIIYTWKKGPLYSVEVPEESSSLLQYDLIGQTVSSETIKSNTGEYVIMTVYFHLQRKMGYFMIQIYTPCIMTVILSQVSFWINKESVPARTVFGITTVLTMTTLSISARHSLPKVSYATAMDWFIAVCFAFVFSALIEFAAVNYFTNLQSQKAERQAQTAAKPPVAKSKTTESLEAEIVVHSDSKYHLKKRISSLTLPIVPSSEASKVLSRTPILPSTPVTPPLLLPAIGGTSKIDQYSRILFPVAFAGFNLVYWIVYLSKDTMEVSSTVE
Chain of UniProt P0A9M2 (whole entry, looked up): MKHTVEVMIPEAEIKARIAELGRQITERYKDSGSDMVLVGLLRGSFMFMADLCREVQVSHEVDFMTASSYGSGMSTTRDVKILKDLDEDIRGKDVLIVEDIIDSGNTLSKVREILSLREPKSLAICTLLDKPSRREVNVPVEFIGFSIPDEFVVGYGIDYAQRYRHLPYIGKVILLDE
Chain of UniProt P63079 (whole entry, looked up): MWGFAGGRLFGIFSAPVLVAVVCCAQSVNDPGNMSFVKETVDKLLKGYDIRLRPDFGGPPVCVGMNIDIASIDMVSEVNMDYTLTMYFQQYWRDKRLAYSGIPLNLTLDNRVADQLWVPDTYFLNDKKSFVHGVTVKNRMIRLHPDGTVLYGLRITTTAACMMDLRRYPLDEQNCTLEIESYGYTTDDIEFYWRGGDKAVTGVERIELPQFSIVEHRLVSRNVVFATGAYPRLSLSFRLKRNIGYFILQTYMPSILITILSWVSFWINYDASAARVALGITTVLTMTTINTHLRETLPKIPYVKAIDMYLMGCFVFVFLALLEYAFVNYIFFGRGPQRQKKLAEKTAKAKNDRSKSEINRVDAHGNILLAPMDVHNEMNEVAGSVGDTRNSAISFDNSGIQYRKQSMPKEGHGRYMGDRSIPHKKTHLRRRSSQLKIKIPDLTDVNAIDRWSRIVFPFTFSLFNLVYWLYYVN
Chain of UniProt Q12791 (whole entry, looked up): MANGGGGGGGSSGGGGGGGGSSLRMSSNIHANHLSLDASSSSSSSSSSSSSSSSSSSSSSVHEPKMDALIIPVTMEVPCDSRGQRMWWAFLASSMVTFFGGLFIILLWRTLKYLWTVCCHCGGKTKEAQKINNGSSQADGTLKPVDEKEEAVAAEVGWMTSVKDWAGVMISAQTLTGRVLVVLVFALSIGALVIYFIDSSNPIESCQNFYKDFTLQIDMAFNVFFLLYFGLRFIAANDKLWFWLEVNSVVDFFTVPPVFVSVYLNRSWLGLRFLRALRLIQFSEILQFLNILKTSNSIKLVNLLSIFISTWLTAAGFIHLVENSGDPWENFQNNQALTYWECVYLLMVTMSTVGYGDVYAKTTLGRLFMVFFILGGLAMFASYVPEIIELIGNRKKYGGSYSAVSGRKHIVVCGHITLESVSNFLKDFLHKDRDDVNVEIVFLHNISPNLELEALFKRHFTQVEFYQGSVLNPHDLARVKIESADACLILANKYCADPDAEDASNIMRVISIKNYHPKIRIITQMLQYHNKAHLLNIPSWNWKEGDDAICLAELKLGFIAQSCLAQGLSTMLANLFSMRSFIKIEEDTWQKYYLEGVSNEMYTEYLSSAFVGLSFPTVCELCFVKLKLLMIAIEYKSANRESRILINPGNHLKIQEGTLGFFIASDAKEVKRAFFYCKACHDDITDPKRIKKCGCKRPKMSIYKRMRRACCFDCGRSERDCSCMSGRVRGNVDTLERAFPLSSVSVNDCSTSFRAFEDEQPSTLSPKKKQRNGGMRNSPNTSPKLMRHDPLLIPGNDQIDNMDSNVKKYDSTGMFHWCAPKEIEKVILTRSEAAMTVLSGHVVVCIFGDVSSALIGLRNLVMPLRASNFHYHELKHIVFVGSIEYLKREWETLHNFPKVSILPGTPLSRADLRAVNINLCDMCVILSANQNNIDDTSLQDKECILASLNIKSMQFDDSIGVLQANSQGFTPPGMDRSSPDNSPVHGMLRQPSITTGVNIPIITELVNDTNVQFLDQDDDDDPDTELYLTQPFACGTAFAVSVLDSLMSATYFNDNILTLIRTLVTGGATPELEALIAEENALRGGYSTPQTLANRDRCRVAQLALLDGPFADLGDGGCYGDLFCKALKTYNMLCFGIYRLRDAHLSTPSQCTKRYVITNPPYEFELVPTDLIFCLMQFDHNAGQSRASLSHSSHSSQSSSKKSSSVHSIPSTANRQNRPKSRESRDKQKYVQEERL
Chain of UniProt Q8TBX8 (whole entry, looked up): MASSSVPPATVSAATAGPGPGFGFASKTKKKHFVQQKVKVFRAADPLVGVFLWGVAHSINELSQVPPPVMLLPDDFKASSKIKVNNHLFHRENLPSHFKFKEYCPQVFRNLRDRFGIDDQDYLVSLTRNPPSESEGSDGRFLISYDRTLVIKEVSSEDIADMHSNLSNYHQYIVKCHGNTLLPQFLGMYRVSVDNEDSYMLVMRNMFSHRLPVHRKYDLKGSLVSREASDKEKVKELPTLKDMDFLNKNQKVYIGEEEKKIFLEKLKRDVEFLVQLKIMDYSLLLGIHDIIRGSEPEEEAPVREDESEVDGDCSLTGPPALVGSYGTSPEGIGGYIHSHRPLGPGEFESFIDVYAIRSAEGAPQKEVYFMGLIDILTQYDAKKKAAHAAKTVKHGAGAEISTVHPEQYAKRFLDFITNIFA
Chain of UniProt P08575 (whole entry, looked up): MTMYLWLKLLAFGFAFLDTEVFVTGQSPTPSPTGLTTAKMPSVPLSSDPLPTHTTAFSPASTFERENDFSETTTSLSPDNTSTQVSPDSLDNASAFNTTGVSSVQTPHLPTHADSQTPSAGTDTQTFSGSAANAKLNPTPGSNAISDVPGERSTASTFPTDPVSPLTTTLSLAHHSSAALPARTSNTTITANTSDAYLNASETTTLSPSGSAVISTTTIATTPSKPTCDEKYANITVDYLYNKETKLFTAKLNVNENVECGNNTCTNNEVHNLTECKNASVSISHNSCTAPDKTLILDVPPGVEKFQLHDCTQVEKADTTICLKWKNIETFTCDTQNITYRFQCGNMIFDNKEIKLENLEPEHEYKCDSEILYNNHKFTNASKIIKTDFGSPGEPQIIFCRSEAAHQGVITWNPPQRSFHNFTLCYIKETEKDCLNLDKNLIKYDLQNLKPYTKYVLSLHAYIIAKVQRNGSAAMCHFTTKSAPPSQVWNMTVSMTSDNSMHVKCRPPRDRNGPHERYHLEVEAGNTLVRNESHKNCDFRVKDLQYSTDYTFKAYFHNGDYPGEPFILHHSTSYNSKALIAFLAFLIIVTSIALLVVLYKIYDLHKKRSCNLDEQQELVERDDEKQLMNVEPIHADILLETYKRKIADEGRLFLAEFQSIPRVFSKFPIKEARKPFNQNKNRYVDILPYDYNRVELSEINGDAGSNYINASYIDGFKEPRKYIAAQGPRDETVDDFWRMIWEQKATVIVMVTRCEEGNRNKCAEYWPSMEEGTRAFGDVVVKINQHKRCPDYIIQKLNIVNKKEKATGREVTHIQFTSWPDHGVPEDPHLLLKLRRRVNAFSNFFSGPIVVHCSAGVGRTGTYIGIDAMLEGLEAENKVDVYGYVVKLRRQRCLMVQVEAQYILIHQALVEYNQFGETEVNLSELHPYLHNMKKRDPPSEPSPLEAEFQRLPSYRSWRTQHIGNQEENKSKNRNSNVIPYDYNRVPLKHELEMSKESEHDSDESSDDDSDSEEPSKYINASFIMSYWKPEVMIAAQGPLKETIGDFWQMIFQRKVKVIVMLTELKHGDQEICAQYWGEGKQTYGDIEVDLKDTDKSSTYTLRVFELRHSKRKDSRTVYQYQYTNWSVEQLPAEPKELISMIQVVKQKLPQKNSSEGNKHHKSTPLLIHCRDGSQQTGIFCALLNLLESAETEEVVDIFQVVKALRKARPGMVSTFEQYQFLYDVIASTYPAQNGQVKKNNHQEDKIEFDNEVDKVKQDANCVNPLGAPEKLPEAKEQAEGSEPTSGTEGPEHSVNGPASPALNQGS
Chain of UniProt O75751 (whole entry, looked up): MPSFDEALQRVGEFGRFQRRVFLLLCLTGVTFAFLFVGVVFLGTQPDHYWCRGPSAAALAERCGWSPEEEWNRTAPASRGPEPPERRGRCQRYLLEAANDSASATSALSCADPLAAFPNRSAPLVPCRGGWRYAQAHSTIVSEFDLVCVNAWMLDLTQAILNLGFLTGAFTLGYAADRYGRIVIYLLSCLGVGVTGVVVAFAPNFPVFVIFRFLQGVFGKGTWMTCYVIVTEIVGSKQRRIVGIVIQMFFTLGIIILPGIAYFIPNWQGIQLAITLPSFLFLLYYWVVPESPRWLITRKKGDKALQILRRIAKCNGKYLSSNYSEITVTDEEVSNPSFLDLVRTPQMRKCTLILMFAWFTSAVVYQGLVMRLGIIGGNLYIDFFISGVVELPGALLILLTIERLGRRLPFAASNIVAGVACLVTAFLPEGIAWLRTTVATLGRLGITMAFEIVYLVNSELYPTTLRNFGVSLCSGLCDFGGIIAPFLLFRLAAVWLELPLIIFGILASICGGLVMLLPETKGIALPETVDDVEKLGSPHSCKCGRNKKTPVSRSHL

CCN(CC)C(=S)S — activity (PTPRC (Homo sapiens, UniProt P08575); enzyme activity; concentration not given, added: DiFMUP): inactive
Cc1ncsc1-c1ccc([C@H](C)NC(=O)[C@@H]2C[C@@H](O)CN2C(=O)[C@@H](NC(=O)CCCCCC(=O)N2CCC3(CC2)CCN(c2cncc(Nc4ncc(Cl)c(-c5cccc(-c6ccccc6)c5)n4)c2)C3=O)C(C)(C)C)cc1 — Dmax (PIP4K2C (Homo sapiens, UniProt Q8TBX8); degrader, immunoblot; MOLT-4; 1 µM, 6 h): 91%
Nc1nc2c(ncn2[C@@H]2O[C@H](COP(=O)(O)O)[C@@H](O)[C@H]2O)c(=O)[nH]1 — reaction velocity (GUK1 (Homo sapiens, UniProt Q16774); enzyme activity, NADH-coupled; 62.5 µM, added: KCl 10 mM): 0.0656 µM/s and 0.0591 µM/s and 0.0741 µM/s
COc1cccc(-n2nc3c4cc(Cl)ccc4[nH]cc-3c2=O)c1 — efficacy (Gamma-aminobutyric acid receptor subunit alpha-6/beta-3, with delta subunit (Gabra6/Gabrb3, Rattus norvegicus, UniProt P30191+P63079); ion current, modulator, two-electrode voltage clamp; 300 nM, α6β3δ receptor, added: GABA EC3-10): 98.1 ± 3.2%
CC[C@H](C)[C@H](NC(=O)[C@H](Cc1ccccc1)NC(=O)[C@H](CCC(=O)O)NC(=O)[C@H](CCCNC(=N)N)NC(=O)[C@H](C)NC(=O)[C@H](C)NC(=O)[C@H](CCC(N)=O)NC(=O)[C@H](CCC(=O)O)NC(=O)[C@H](CCC(=O)O)NC(=O)[C@H](CC(C)C)NC(=O)[C@H](Cc1ccc(O)cc1)NC(=O)[C@H](CO)NC(=O)[C@H](CO)NC(=O)[C@@H](NC(=O)[C@H](CC(=O)O)NC(=O)[C@H](CO)NC(=O)[C@@H](NC(=O)[C@H](Cc1ccccc1)NC(=O)[C@@H](NC(=O)CNC(=O)[C@H](CCC(=O)O)NC(=O)[C@H](C)NC(=O)CCc1cnc[nH]1)[C@@H](C)O)[C@@H](C)O)C(C)C)C(=O)N[C@@H](C)C(=O)N[C@@H](Cc1c[nH]c2ccccc12)C(=O)N[C@@H](CC(C)C)C(=O)N[C@H](C(=O)N[C@@H](CCCNC(=N)N)C(=O)NCC(=O)N[C@@H](CCCNC(=N)N)C(=O)N[C@@H](CCCCNC(=O)COCCOCCNC(=O)COCCOCCNC(=O)CC[C@H](NC(=O)CCCCCCCCCCCCCCCCC(=O)O)C(=O)O)C(=O)NCC(=O)NCC(=O)N[C@@H](CO)C(=O)N[C@@H](CCCCNC(=O)[C@H](CCCCNC(=O)[C@H](CCCCNc1c(NCCCCCN(O)C(=O)CCC(=O)NCCCCCN(O)C(=O)CCC(=O)NCCCCCN(O)C(C)=O)c(=O)c1=O)Nc1c(NCCCCCN(O)C(=O)CCC(=O)NCCCCCN(O)C(=O)CCC(=O)NCCCCCN(O)C(C)=O)c(=O)c1=O)NC(=O)[C@H](CCCCNc1c(NCCCCCN(O)C(=O)CCC(=O)NCCCCCN(O)C(=O)CCC(=O)NCCCCCN(O)C(C)=O)c(=O)c1=O)Nc1c(NCCCCCN(O)C(=O)CCC(=O)NCCCCCN(O)C(=O)CCC(=O)NCCCCCN(O)C(C)=O)c(=O)c1=O)C(=O)O)C(C)C — fold potency loss (GLP1R (Homo sapiens, UniProt P43220); agonist, CRE luciferase reporter; BHK cells; metal-free DFO conjugate, added: 1% HSA; relative to: parent peptide): 6.7
C[C@@H]1CCO[C@H]2Cn3cc(C(=O)NCc4ccc(F)cc4F)c(=O)c(O)c3C(=O)N12 — inhibition (SLC22A3 (Homo sapiens, UniProt O75751); transport; MDCK-II, transfected; 0.3 µM, added: MPP+ 2 µM): 7.13%
N#CCC(=O)Nc1ccc(C2CCCCC2)cc1 — hepatic clearance (liver microsome stability; rat liver microsomes; 1 µM): 3.06 L/h/kg
CC(NC(=O)CCCc1ccc2ccc3cccc4ccc1c2c34)C(=O)NO (stereo not drawn) — TΔS° (HDAC8 (Homo sapiens, UniProt Q9BY41); ITC; Tris-HCl buffer; 293 K): 25.1 kJ/mol
O=C(Nc1cccc2c(=O)cc(-c3nnn[nH]3)oc12)c1ccc(OCCCCc2ccccc2)cc1 — inhibition (Volume-regulated anion channel subunit LRRC8C, part LRRC8A IL1 chimera (LRRC8C, Homo sapiens, UniProt Q8TDW0, E6A); ion current, inhibitor, whole-cell patch clamp; HCT116 LRRC8 knockout, transfected; 1 µM, at +100 mV): 88.2%
Nc1nc2c(ncn2[C@@H]2O[C@H](COP(=O)(O)OP(=O)(O)O)[C@@H](OP(=O)(O)OP(=O)(O)O)[C@H]2O)c(=O)[nH]1 — binding stoichiometry (Hypoxanthine phosphoribosyltransferase (hpt, Escherichia coli, UniProt P0A9M2); ITC; concentration not given): 0.97 ± 0.03
CN1CCN(C(=O)c2ccc([C@H]3[C@@H](F)[C@@H](F)C[C@@H](F)[C@H]3F)cc2)CC1 — hepatic clearance (liver microsome stability; cynomolgus liver microsomes; 1 µM): 0.294 L/h/kg
CN(C)C(=O)C(CCN1CCC(O)(c2ccc(Cl)cc2)CC1)(c1ccccc1)c1ccccc1 — normalized Gmax (Calcium-activated potassium channel subunit alpha-1, with LRRC26 γ1 subunit (KCNMA1, Homo sapiens, UniProt Q12791); BK current, inhibitor, inside-out patch clamp; excised membrane patch; 1 µM, γ1 subunit coexpressed, added: nominally 0 Ca2+ cytosolic; relative to: without loperamide): 0.623

A few entries again:
Cc1ncsc1-c1ccc([C@H](C)NC(=O)[C@@H]2C[C@@H](O)CN2C(=O)[C@@H](NC(=O)CCCCCC(=O)N2CCC3(CC2)CCN(c2cncc(Nc4ncc(Cl)c(-c5cccc(-c6ccccc6)c5)n4)c2)C3=O)C(C)(C)C)cc1 — Dmax (PIP4K2C (Homo sapiens, UniProt Q8TBX8); degrader, immunoblot; MOLT-4; 1 µM, 6 h): 91%
